# Experimental data collected from several papers.
# Every numbered part comes from another study and shows a few of its results, in no order.

# Sample 1 — method: RNA Bind-n-Seq; molecule type: RNA; matrix: in vitro; tested at: 365 nM; relative to: no-protein control; direction: higher = stronger binding
# Target: RNA binding protein fox-1 homolog 2, RRM domain, GST-SBP tag (RBFOX2, Homo sapiens, UniProt O43251-10, residues 100-194)
# Setting: natural RNA segment, single round, ends assumed
# Shared flanks, not repeated: GGGAGUUCUACAGUCCGACGAUC … UGGAAUUCUCGGGUGCCAA
# Target sequence (chain): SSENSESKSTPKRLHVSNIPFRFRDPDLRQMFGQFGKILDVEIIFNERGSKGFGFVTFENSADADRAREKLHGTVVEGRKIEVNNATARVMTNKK
Oligonucleotide,RBNS enrichment (R)
CUAAAAAUAAGGUUUAUUAAGCCAAGACCAGACUUUUGAGCAGGGCAGCACUGCCAGGCUGUCGUCAGUUUCACCAUGUGGCCUCUGUGCCCCUCCUCCGUAGUCCUCUC,0.254
GUAGACUAAAAGCCUAGAAGUUCUGCCCACAUCCUUAUGACGCAGCCAAUCUGGAGCUUCAUGUUUCCUUCUAAAAGUAGUAACCGGGUAGAAGUGGGUGACCCAUUGAG,0.361
AUAGCUAAAGAAAUUUUUGUGGUUUCUCUGCUUAUGGUUUUGAGUUACUCUUUGUUCAGUAAUGCACUUUAUUUUAUUGUCCAAAGAGAGUCAAGCUAAAGCUACCACCU,0.551
CAUGGUAGUGUUUCUUAUUUAUUUGGUUGCUGCUAAGCCUUGACAGUGGUUCACCUUCCUGGGCUGUCCCCAGUGGUCACGUCCUGCCUGGCUUCCUACUUGGGUAUAGC,0.259
CUCUACUGCUGUCCUACAAUACAUGAGGUGACUUCCGGCCAUGCUGCCCACUGUUGGCGGCUCUGUGUGUUAAUAGGCUAGGGAGAGGAGUGUCUGCUGCCGCUUGCUUC,1.99
CUUUUUAAAUGCAGUAAGGUGGCCUGUUUAUCACUGGCUCUGUGAUACAUGACAUUCUUUGGGAAUUUGGUGGCCACUGCUUCAGUCACCUCUGUUUUUCUGAAGGCUGU,0.489
ACAAAAGGCACUGAGGAACUUGCACCCCUUCCAGGGAGGGUGUCCAAGUAGCACCGUUCCUGCCCAGUGGGAAAGCAAUCCCAACAUGUCUGAGAUGUUCGGACUUUUAA,0.253
GCCUGAGUCUUUAAAAAAAAAUAAAUAAAAAUCCUGGAACUGCCAUAAAGUCUGAAGUCGUGACAGUCAGGAGGAAAUCCAGAAGUUAUCAGUGUCAGUAGGUGGUCCAG,0.643

# Sample 2 — method: protein-binding microarray; molecule type: double-stranded DNA, one strand shown; matrix: in vitro; tested at: 250 nM; setting: 60-bp whole probe; together with: salmon DNA 0.4 mg/ml; relative to: random background probes; direction: higher = stronger binding; shared flanks, not repeated: GCCTAGCAC … GTCTTGATTCGCTTGACGCTGCTG
# Target: Interferon regulatory factor 5, full length, phosphomimetic (IRF5, Homo sapiens, UniProt Q13568-2, residues 1-514, K96S/S451D/S453D/S456D/S462D)
Oligonucleotide,log fluorescence [z-score]
TACGGTATCGACACTGGGGACGTGCTA,1.69
GACGGTATCGACTATCGGGTCGTGCTA,4.98
TCAGGAAATGGGAAACCCACTGTGCTA,0.0533
TTAGATATCGGGTTACGATTAGTGCTA,2.96
GACGATATCAGTATCGATACGTGCTAG,8.18
TTAGATCTGAGTTTCGATTAGTGCTAG,8.95
GACGGTTTCGGTTCCAGGACGTGCTAG,9.42
TCATTTTTCTTTAAAAGACTGTGCTAG,0.88
TTAGGTATCCTTCTCATTTAGTGCTAG,0.423

# Sample 3 — method: protein binding microarray; molecule type: double-stranded DNA, one strand shown; matrix: in vitro; tested at: not given; relative to: not given; direction: higher = stronger binding
# Target: Histone acetyltransferase KAT6A, both winged helices, GST fusion (KAT6A, Homo sapiens, UniProt Q92794, residues 1-181)
# Setting: 8-mer, flanks averaged, mean of 2 arrays, mostly near background
# Residues (chain): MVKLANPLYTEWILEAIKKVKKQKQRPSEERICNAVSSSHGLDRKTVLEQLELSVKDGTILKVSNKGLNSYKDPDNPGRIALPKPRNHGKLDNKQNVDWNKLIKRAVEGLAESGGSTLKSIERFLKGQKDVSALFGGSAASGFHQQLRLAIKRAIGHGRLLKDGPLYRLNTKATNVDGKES
Oligonucleotide,E-score
AACCGTCT,0.11
AGGGCGGA,0.134
AATTTGAT,-0.127
CCTAGCAG,-0.162
TCGGGAAA,0.123
GCTGTGGA,-0.0391
AGCGTACT,0.0961
AACGTCGA,-0.0205
GGCCAGCA,-0.0597
AAATGAAG,-0.0223

# Single results of other studies
Substance,target,assay,system,conditions,scale,quantity,value
"PhoQ, residues 284 288 289 292 302 303 SIHMAM","PhoP, residues 12 14 15 18 19 SQCLL (Escherichia coli, UniProt P23836)","Sort-seq, item: YFP reporter",E. coli,"PhoQ-PhoP variant library, together with: 10 µM Mg2+","relative to: high Mg2+ state, higher = stronger signaling",fold induction,12.6

# Excerpt of the above (sample 3):
Oligonucleotide,E-score
AACCGTCT,0.11
AGGGCGGA,0.134
AATTTGAT,-0.127
CCTAGCAG,-0.162
